Results from different studies.
Numbered parts are unrelated; each lists some results of a single study.

Sample 1
Target: Histone acetyltransferase KAT6A, both winged helices, GST fusion (KAT6A, Homo sapiens, UniProt Q92794, residues 1-181)
Method: protein binding microarray
Form: double-stranded DNA, one strand shown
Sample: in vitro
Concentration: not given
Notes: 8-mer, flanks averaged, mean of 2 arrays, mostly near background
Baseline: not given
Reading: higher = stronger binding
Construct (chain): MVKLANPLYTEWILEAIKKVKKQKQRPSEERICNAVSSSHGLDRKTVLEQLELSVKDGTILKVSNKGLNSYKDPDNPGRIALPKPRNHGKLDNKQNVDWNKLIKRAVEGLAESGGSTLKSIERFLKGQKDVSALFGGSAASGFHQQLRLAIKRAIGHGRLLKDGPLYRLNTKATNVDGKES
| Sequence | E-score |
| --- | --- |
| CATAAACC | -0.0789 |
| AGCCAGCG | 0.0437 |
| AGTCGATA | -0.183 |
| TATTAGCA | -0.161 |
| CTAACCTC | -0.183 |
| TAGAAACA | -0.0632 |
| CGCCGGTC | 0.316 |
| TACGAAAA | -0.116 |
| CTCTTTTA | -0.163 |
| CCCCTCGC | -0.0436 |
| ACATAAGT | -0.102 |
| AGGGGCAA | -0.187 |
| ATGCAATC | -0.00397 |
| AGTTCACG | 0.0231 |
| AAATTACT | -0.13 |
| GAAGTAAA | -0.209 |
| CCGTCCCA | 0.00675 |
| GGCGATAA | -0.036 |
| AAAACATT | -0.0443 |
| GCAGCAGA | -0.134 |
| CGGCTTTC | 0.267 |
| AGGGCACC | -0.115 |
| CAGAGTAA | -0.0144 |
| ATCATGGC | -0.0329 |
| CTCCTCAC | -0.127 |

Sample 2
Target: Sal-like protein 4, full length isoform B (SALL4, Homo sapiens, UniProt Q9UJQ4-2, residues 1-616)
Method: universal PBM
Form: double-stranded DNA, one strand shown
Sample: in vitro
Concentration: not given
Notes: 8-mer, flanks averaged, mean of replicates
Reading: higher = stronger binding
Target sequence (chain): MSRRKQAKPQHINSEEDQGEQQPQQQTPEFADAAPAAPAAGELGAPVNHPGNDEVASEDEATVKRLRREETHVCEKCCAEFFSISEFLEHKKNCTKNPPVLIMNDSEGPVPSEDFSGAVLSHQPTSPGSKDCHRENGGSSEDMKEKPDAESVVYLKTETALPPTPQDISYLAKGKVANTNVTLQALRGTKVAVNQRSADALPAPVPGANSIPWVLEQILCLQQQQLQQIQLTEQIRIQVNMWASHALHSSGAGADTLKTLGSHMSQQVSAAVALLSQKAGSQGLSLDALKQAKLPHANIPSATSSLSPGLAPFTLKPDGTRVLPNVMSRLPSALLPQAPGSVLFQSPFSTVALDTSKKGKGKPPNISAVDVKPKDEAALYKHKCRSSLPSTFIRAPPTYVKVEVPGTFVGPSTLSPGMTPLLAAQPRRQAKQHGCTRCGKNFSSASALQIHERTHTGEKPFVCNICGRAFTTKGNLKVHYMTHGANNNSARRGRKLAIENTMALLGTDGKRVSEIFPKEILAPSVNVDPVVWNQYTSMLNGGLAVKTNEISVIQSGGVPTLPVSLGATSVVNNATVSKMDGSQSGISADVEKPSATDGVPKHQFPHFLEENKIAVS
| Sequence | E-score |
| --- | --- |
| ATGCAGGA | -0.0384 |
| CACGAATG | 0.116 |
| CACTCTTA | 0.0492 |
| GCGCAGAC | -0.162 |
| ACATTGGA | 0.0794 |
| CCGGTCAA | -0.235 |
| ACTATGGG | -0.0863 |
| AGGAACGA | -0.115 |
| AGTTAGCC | -0.169 |
| ACTCTTCT | -0.0177 |
| GGAGTAGA | -0.0445 |
| CAGCTCCG | -0.233 |
| AAGGGGAA | -0.18 |
| ACGGTGGA | -0.276 |
| GGGTCGTA | -0.17 |
| CCCAATCA | -0.0726 |
| AGCTTAAG | 0.0459 |
| GACCTGAA | -0.0979 |
| TAACTGTA | 0.267 |
| GCGACTAA | 0.0623 |
| CGGACCAA | -0.166 |
| AAGTATGA | 0.258 |

Sample 3
Target: RNA binding protein fox-1 homolog 2, RRM domain, GST-SBP tag (RBFOX2, Homo sapiens, UniProt O43251-10, residues 100-194)
Method: RNA Bind-n-Seq
Form: RNA
Sample: in vitro
Concentration: 365 nM
Notes: natural RNA segment, single round, ends assumed
Baseline: no-protein control
Reading: higher = stronger binding
Target sequence (chain): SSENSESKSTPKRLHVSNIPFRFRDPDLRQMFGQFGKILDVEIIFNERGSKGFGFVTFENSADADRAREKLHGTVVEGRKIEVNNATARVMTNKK
| Sequence | RBNS enrichment (R) |
| --- | --- |
| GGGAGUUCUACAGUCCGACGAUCUGUGGAAAUUGAUUGGGAUUUGAUUGUCAGCAACUUGUAUGAGAUUCAUUAAAUGGCCCUGGCAUACAGCCACACACAGCUGCAAAUCUCAGCCAAAGAGGGAAAGGAAAUGGAAUUCUCGGGUGCCAA | 0.442 |
| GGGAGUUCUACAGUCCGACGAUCGGAAUGGAACAAGCAAAGAAACUUGUGUUGGUGUCAGGUUGGUGUAGCUGGAUCACCCAAGUAGUAGCCCUUGAUCUCCUUUCAUGACGGAUAGGCUCAGUUAGUCAGGAUGGAAUUCUCGGGUGCCAA | 0.715 |
| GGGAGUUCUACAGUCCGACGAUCGGCUCAUUUUGUUGAGCGUCUGCUUUUAUCUUGACACUGAGCACGAGAGGGCACGGGUGGGUGCUCACAGUGGGACCUUCUUGGAGGAAUCUCAGAGGGGGACAGAGAUGUGGAAUUCUCGGGUGCCAA | 3.57 |
| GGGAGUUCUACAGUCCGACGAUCAGCUCACCAACUGAGCUCUGGACUGGGGACUACCGCUGACCAGGAGGGAAGCCUGGAGCCGCACCCGACUCAGCCACUCUGCGUCACAUUCGUCCUGUACCUAGGACCGGUGGAAUUCUCGGGUGCCAA | 0.327 |
| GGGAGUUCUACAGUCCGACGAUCUCUGCUGAGUGGCUCUAGUCCUGAGCCUGGAGUUGCUGAGCUGACCCCAUUCUGAAAGUCUGGCUUAGCGGGCAACACAGAGCCCUCAGCAUCCCAAACAUUGCCAGGAGUGGAAUUCUCGGGUGCCAA | 0.377 |
| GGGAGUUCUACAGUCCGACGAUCUCCUCAUGUGUGCAUGUGUGCCAGAGCGCCAGGCAGGGUGGUUGCCUCAUCACCUCAUGGCCAAUUUGCACUUUGCCAGACUGGAUGGAAUAGAGAAGGGUCCUGUGGAGUGGAAUUCUCGGGUGCCAA | 1.57 |
| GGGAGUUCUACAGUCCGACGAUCCUGUGGAGCACACUUAAGGGAUGGGAUGGUCAGAGGCGCUCCCGAGCAAGCGGGGCAUCAUUCUCCCUUAGAUCCUAGUGUGGCUAAGCAGGGAUGUGGCAGAGAGAUCUUGGAAUUCUCGGGUGCCAA | 0.806 |
| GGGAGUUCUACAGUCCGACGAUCAGACACCUACAGUUACUGAAGUCUCUCAGAAACUCAGGGAAUAUUGAAAACCCAUGCUGUGAACUGUUUUACAAACUUACAGAGAUAAAUGCAUUUGAUUAUCCUGAUUUUGGAAUUCUCGGGUGCCAA | 1.92 |

Mixed results
| Substance | target | test | test system | setting | how to read | quantity | value |
| --- | --- | --- | --- | --- | --- | --- | --- |
| PhoQ, residues 284 288 289 292 302 303 SSLVEF | PhoP, residues 12 14 15 18 19 NHFIF (Escherichia coli, UniProt P23836) | Sort-seq, refers to: YFP reporter | E. coli | PhoQ-PhoP variant library, with: 10 µM Mg2+ | baseline: high Mg2+ state, higher = stronger signaling | fold induction | 6.39 |

Some of these lines once more (sample 2):
| Sequence | E-score |
| --- | --- |
| AGCTTAAG | 0.0459 |
| TAACTGTA | 0.267 |
| CACGAATG | 0.116 |
| GCGCAGAC | -0.162 |
| CACTCTTA | 0.0492 |
| GACCTGAA | -0.0979 |
| AGGAACGA | -0.115 |
| CCGGTCAA | -0.235 |
| AAGGGGAA | -0.18 |
